Experimental data from different studies.
Numbered parts are unrelated; each lists some results of a single study.
Sequence of UniProt P51956 (whole entry, looked up): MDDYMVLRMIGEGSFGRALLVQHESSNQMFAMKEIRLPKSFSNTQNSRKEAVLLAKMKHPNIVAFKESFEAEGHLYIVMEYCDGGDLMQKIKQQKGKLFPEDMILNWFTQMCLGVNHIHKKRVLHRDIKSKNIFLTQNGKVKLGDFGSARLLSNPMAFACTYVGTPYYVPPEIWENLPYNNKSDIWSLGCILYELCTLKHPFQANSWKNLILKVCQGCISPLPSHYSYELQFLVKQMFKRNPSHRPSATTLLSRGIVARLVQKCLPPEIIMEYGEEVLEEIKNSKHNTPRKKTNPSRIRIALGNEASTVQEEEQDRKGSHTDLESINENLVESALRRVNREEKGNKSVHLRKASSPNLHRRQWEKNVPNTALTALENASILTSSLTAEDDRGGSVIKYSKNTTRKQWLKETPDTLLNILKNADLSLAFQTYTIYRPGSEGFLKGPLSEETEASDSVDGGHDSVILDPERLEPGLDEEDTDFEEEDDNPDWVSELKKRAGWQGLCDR
Sequence of UniProt Q16816 (whole entry, looked up): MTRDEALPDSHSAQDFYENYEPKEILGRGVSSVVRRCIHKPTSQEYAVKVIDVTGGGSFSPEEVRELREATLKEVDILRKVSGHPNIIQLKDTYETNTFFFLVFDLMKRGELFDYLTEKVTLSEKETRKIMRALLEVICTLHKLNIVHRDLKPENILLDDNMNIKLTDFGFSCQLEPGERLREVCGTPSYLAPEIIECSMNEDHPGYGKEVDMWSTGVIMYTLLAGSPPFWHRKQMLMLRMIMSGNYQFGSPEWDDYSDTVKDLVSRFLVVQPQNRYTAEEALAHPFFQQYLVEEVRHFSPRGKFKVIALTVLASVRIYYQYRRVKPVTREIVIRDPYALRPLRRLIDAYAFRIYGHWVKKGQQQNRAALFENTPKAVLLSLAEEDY

Set 1 — method: RNAcompete; form: RNA; matrix: in vitro; concentration: 20 nM; setting: 7-mer, probes averaged, single round; reference: mean of 7-mers; reading: higher = stronger binding
Target: PABPC1L2, full length, GST fusion (mouse, UniProt A0ABA7IW68)
With `GUAGGUC` the 7-mer Z-score was -0.0554.
The 7-mer Z-score of `AGAGCUC` is reported as -0.38.
With `AACGGCG` the 7-mer Z-score was 0.224.
`GAACACC` has a 7-mer Z-score of -0.166.
`UAGCGAA` has a 7-mer Z-score of -0.0464.
The 7-mer Z-score of `AUGCGAC` is reported as 0.037.
For `UCUCAAU`, the 7-mer Z-score was -0.204.
For `UGUGAGC`, the 7-mer Z-score was -0.142.

Set 2 — method: universal PBM; form: double-stranded DNA, one strand shown; matrix: in vitro; concentration: 600 nM; reading: higher = stronger binding
Target: Sal-like protein 4, full length isoform A (SALL4, Homo sapiens, UniProt Q9UJQ4, residues 1-1053)
Sequence of UniProt Q9UJQ4 (whole entry, looked up): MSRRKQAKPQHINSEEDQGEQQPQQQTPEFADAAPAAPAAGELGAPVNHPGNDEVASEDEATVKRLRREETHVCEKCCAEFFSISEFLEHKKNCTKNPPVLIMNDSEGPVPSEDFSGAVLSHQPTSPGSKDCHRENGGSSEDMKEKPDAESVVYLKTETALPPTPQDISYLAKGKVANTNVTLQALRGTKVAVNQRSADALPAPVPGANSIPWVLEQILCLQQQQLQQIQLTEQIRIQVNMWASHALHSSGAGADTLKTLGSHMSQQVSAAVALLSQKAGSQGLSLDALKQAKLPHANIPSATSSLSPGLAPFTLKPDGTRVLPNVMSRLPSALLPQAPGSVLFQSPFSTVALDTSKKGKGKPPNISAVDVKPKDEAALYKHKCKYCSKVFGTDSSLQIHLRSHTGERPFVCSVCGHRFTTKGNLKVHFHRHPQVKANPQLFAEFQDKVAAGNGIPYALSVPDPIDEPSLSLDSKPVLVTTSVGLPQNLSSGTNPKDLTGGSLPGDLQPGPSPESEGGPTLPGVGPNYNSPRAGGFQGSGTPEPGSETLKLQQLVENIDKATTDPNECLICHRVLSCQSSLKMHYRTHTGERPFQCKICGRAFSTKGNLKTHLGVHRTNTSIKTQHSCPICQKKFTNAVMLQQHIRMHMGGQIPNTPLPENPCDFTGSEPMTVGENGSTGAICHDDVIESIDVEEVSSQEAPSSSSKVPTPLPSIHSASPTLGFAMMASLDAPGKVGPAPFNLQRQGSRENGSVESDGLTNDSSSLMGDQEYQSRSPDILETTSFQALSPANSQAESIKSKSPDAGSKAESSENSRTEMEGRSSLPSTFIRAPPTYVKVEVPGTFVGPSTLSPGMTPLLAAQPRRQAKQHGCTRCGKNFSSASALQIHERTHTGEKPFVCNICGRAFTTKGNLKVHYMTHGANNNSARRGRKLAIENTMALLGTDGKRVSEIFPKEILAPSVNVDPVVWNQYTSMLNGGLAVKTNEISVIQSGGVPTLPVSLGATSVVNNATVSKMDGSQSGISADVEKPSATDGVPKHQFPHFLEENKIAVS
Setting: 8-mer, flanks averaged, mean of replicates
`ATTAGAGG` has an E-score of 0.0209.
The E-score of `ATTAGCGG` is reported as -0.0909.
With `ATTAACTG` the E-score was 0.349.
With `CTCAAGCC` the E-score was -0.28.
For `GCCCGACA`, the E-score was -0.239.
The E-score of `TAAAGCAA` is reported as 0.205.
`GCGAAAGC` has an E-score of -0.143.
With `GAGAGAGA` the E-score was -0.0723.

Further values, each from its own experiment
`NS(=O)(=O)c1cc(NC(=O)C2(c3ccccc3Cl)CC2)ccc1Oc1cccc(Cl)c1` gave a remaining binding of 95% (NEK3 (Homo sapiens, UniProt P51956); cell-free assay, competition with immobilised ligand; 1 µM).
With `Nc1nc(Nc2ccc(S(N)(=O)=O)cc2)nn1C(=S)Nc1c(F)cccc1F` the remaining activity was 26% (PHKG1 (Homo sapiens, UniProt Q16816); enzyme activity, inhibitor; 0.5 µM; reference: control).
